Measurements of several laboratories.
Parts stem from different laboratories: compare values within a part only. “And” joins repeats or separate records; there may be more than shown.
Sequence of UniProt Q9UQM7 (whole entry, looked up): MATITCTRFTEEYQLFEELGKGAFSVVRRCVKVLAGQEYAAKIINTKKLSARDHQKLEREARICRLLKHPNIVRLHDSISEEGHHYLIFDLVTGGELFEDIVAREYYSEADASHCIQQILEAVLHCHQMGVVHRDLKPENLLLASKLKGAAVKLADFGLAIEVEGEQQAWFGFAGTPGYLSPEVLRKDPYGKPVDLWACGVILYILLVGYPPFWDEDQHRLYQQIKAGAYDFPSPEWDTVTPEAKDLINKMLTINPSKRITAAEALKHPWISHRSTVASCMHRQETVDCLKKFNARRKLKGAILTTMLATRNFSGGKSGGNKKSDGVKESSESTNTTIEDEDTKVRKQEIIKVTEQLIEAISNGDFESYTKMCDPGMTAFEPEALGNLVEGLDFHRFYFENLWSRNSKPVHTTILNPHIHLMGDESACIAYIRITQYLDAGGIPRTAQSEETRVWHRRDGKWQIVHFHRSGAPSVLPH

Set 1
SMILES: CC(=O)N[C@@H](Cc1c[nH]c2ccccc12)C(=O)N[C@@H](CCC(=O)C=[N+]=[N-])C(=O)OC(C)C
Endpoint: body weight
system = C57BL/6 CES1-/- mouse, EL4 tumour; setting = intravenous, 1 mg/kg DON equivalent, treatment day 15, 5 days per week; scale = relative to: baseline; value = 96% and 110% and 93% and 100% and 97%
system = C57BL/6 CES1-/- mouse, both sexes; setting = 0.3 mg/kg, day 16; value = 104% and 95.7% and 100% and 96.4%
system = C57BL/6 CES1-/- mouse, both sexes; setting = 0.1 mg/kg, day 17; value = 109% and 105% and 100% and 118%
system = C57BL/6 CES1-/- mouse, both sexes; setting = 1 mg/kg, day 9; value = 97% and 95.5% and 105% and 96.6% and 90.9%
system = C57BL/6 CES1-/- mouse, EL4 tumour; setting = intravenous, 1 mg/kg DON equivalent, treatment day 10, 5 days per week; scale = relative to: baseline; value = 100% and 96% and 93% and 92% and 105%
system = C57BL/6 CES1-/- mouse, both sexes; setting = 1 mg/kg, day 7; value = 100%

Set 2
SMILES: CNC(=O)c1ccc(-c2cnn3ccc(C(=O)N(C)c4ccc(Cl)c(C(=O)OC)c4)cc23)cc1
Organism: Cryptosporidium parvum
Method: qPCR
Species: IFN-γ knockout mouse
Endpoint: faecal oocyst shedding
system = faeces; setting = 3 mg/kg, day 3 post treatment; value = 5.97 log oocysts/g faeces and 5.86 log oocysts/g faeces and 5.64 log oocysts/g faeces
setting = 10 mg/kg, day 3 post treatment; value = 4.78 log oocysts/g faeces
system = faeces; setting = 1 mg/kg, day 5 post treatment; value = 6.99 log oocysts/g faeces and 7.04 log oocysts/g faeces and 6.65 log oocysts/g faeces
system = faeces; setting = 10 mg/kg, day 3 post treatment; value = 4.59 log oocysts/g faeces and 5.23 log oocysts/g faeces and 4.52 log oocysts/g faeces
system = faeces; setting = 10 mg/kg, day 5 post treatment; value = 4.31 log oocysts/g faeces and 3.62 log oocysts/g faeces and 4.36 log oocysts/g faeces
system = faeces; setting = 3 mg/kg, day 1 post treatment; value = 6.35 log oocysts/g faeces and 6.44 log oocysts/g faeces
setting = 10 mg/kg, day 1 post treatment; value = 6.19 log oocysts/g faeces
setting = 3 mg/kg, day 1 post treatment; value = 6.38 log oocysts/g faeces

Set 3
Cell line: mouse MPNST tumor cells
Method: high-content immunofluorescence imaging
Refers to: nuclear SOX9
Concentration: 10 µM
Time: 12 h
Notes: mean of 2 replicates
Relative to: DMSO control
Direction: higher = more nuclear SOX9
Endpoint: nuclear SOX9 intensity
SMILES = Oc1ccc2c3c1O[C@H]1c4oc5ccccc5c4C[C@@]4(O)[C@@H](C2)N(CC2CC2)CC[C@]314; value = 119 % of DMSO
SMILES = Cc1cccc(C)c1NC(=O)CN1CCCC1=O; value = 99.4 % of DMSO
SMILES = C[N+]12CCC(CC1)C(OC(=O)C(O)(c1ccccc1)c1ccccc1)C2 (centres unmarked); value = 103 % of DMSO
SMILES = Cc1ccc(C23CNCC2C3)cc1 (centres unmarked); value = 101 % of DMSO

Other studies, line by line
SMILES = COc1ccc(-c2c(Nc3ccccn3)[nH]c3c(C4=CCCCC4)c(-c4ccccc4)nn3c2=O)cc1; system = patients with advanced malignancies; setting = oral, dose not given, treatment-emergent adverse events; endpoint = urinary tract infection incidence; value = 10%
SMILES = CC1(C)O[C@@H]1COc1c2occc2cc2ccc(=O)oc12; tested on = Calcium/calmodulin-dependent protein kinase type II subunit alpha (CAMK2A, Homo sapiens, UniProt Q9UQM7); assay = enzyme activity, inhibitor; setting = 10 µM; endpoint = inhibition; value = -14%

Excerpt of the above (set 1):
system = C57BL/6 CES1-/- mouse, EL4 tumour; setting = intravenous, 1 mg/kg DON equivalent, treatment day 15, 5 days per week; scale = relative to: baseline; value = 96% and 110% and 93% and 100% and 97%
system = C57BL/6 CES1-/- mouse, both sexes; setting = 0.3 mg/kg, day 16; value = 104% and 95.7% and 100% and 96.4%
system = C57BL/6 CES1-/- mouse, both sexes; setting = 0.1 mg/kg, day 17; value = 109% and 105% and 100% and 118%
